Assay results gathered from unrelated publications.
Lines come from different studies, so protocols differ. ± gives the spread as reported.

CCN1CCN(Cc2ccc(NC(=O)c3ccc(C)c(NC(=O)c4cncc(-c5cccs5)c4)c3)cc2C(F)(F)F)CC1 has an AUC/dose of 0.11 kg·µg·h/mL/mg (C57BL/6 mouse, plasma; intraperitoneal, 20 mg/kg, 0.25 to 8.0 h, single dose).
For O=C(O)CCCOc1ccc([18F])cc1-c1cc(-c2ccccc2C(F)(F)F)n(-c2ccccc2)n1, the radioactivity uptake was 0.18 ± 0.03 SUV (gamma counting; male ddY mice, spleen; intravenous, 2.1 MBq, 30 min).
C=CC(=O)Nc1cc(Nc2nccc(-c3cn(C)c4ccccc34)n2)c(OC)cc1N(C)CCN(C)C has a recovery of 59.9% (storage stability; human dried blood spot; 30 d, on ice, MQC level).
For Cn1ncnc1[C@H]1c2n[nH]c(=O)c3cc(F)cc(c23)N[C@@H]1c1ccc(F)cc1, “CL/F at steady state” read 3 L/h/m2 (human patients, plasma; oral, 600 µg/m2 twice daily day 1, day 5, dose level DL5, median, with: temozolomide 40 mg/m2 daily days 2-6).
CC[C@H](C)[C@H](NC(=O)[C@H](Cc1ccccc1)NC(=O)[C@H](CCC(=O)O)NC(=O)[C@H](CCCCNC(=O)COCCOCCNC(=O)COCCOCCNC(=O)CC[C@H](NC(=O)CCCCCCCCCCCCCCCCC(=O)O)C(=O)O)NC(=O)[C@H](C)NC(=O)[C@H](C)NC(=O)[C@H](CCC(N)=O)NC(=O)CNC(=O)[C@H](CCC(=O)O)NC(=O)[C@H](CC(C)C)NC(=O)[C@H](Cc1ccc(O)cc1)NC(=O)[C@H](CO)NC(=O)[C@H](CO)NC(=O)[C@@H](NC(=O)[C@H](CC(=O)O)NC(=O)[C@H](CO)NC(=O)[C@@H](NC(=O)[C@H](Cc1ccccc1)NC(=O)[C@@H](NC(=O)CNC(=O)[C@H](CCC(=O)O)NC(=O)C(C)(C)NC(=O)[C@@H](N)Cc1cnc[nH]1)[C@@H](C)O)[C@@H](C)O)C(C)C)C(=O)N[C@@H](C)C(=O)N[C@@H](Cc1c[nH]c2ccccc12)C(=O)N[C@@H](CC(C)C)C(=O)N[C@H](C(=O)N[C@@H](CCCNC(=N)N)C(=O)NCC(=O)N[C@@H](CCCNC(=N)N)C(=O)NCC(=O)O)C(C)C: “QTcB change from baseline” 6.4 ms (12-lead Holter ECG; healthy humans; subcutaneous, 1.5 mg once weekly, 36 h, steady state; reference: placebo).
For COc1cc2nccc(Oc3ccc(NC(=O)c4cc5c(n(-c6ccccc6)c4=O)CCCC5=O)nc3)c2cc1OC, “grade ≥3 Pneumonia patients” read 0% (relapsed or refractory AML; oral, 10 mg once daily).
For CCCCCCCOc1ccc(CCC(N)(CO)CO)cc1C(F)(F)F.Cl, the renal clearance was 0.198 mL/min (healthy men; oral, 0.75 mg, day 21).
Under “abdominal distension incidence”, CNCc1ccc(-c2[nH]c3cc(F)cc4c3c2CCNC4=O)cc1 is recorded as 19.2% (patients; oral, 600 mg twice daily, grade 1).
With CCO[C@H]1CCN(Cc2c(OC)cc(C)c3[nH]ccc23)[C@H](c2ccc(C(=O)O)cc2)C1 the total AUC(0-inf) was 53000 ng·h/mL (human moderate hepatic impairment, plasma; oral, 200 mg single dose, geometric mean).
The V/F of C#Cc1cccc(Nc2ncnc3cc(OCCOC)c(OCCOC)cc23)c1 is reported as 174 ± 79 L (human, plasma; oral, 100 mg, day 1).
For COc1cc2c(NC3CCN(C(C)C)CC3)nc(N3CCC(F)(F)CC3)nc2cc1OCCCN1CCCC1, the viability was 97.5% (HBL-1; 1 µM, 120 h).
Cc1c(C(=O)O)ccc2c3n(nc12)[C@@H]1[C@H](C3)N(CC2CC2)[C@@]2(C(=O)Nc3cc(Cl)ccc32)[C@H]1c1cccc(Cl)c1F gave a plasma concentration of 284 nM (female BALB/c nude mice, SJSA-1 xenograft, plasma; oral, 1 mg/kg twice daily, 31 h).
The AUC(0-t) of CSc1ccccc1C(=O)NCCn1cc(C(=O)NCc2cccc(C)n2)c(=O)c2cc3c(cc21)OC(F)(F)O3 is reported as 1110 ± 44.9 ng·h/mL (Sprague-Dawley rat, male, plasma; intravenous, 20 mg/kg of parent drug).
O=C(COc1ccc(Cl)cc1)NC12CC(c3nnc([C@H]4C[C@@H](OC(F)(F)F)C4)o3)(C1)C2: “participants maximum mild TEAE” 57.1% (human both sexes; oral, 200 mg once daily, 14 days).
CC(C)(C(=O)N1CCOc2c(C#N)cncc2C1)C(F)F: “subjects with TEAE” 0% (refers to: medical device site dermatitis; healthy humans, both sexes; oral, 10 mg single dose).
O=C(N[C@H](Cc1c[nH]c2ccccc12)C(=O)Nc1ccncc1)c1ccc(N2CCN(c3ccc(F)c(F)c3)CC2)cc1F has a concentration of 1280 nM (Swiss Webster mouse, female, lung; oral, 50 mg/kg, 8 h, 20% HPβCD vehicle).
Under “systolic blood pressure”, COc1ccc2c(c1)CN(C(=O)CCN1CCC(Cc3ccccc3)CC1)CC[S@@+]2[O-] is recorded as 137 ± 11 mmHg (telemetry; conscious male beagle dogs; intravenous, 2 mg/kg, 4 h).
O=C(/C=C/N1C[C@H]2C[C@@H]1CN2c1ccccn1)c1ccccc1O gave a viability of 63.1% (HBL-1; 1 µM, 120 h).
COc1ccc([C@@H](O)c2cc(-c3ncnc4cc(N5CCOCC5)ccc34)c(F)cc2Cl)nn1: “drug-related lymphocyte count decrease” 50% (locally advanced rectal cancer patients; 250 mg, with: capecitabine and radiotherapy).
CN(CCC(=O)O)C(=O)c1ccc2c(c1)CC[C@@H]1[C@@H]2CC[C@]2(C)C(c3cncc(F)c3)=CC[C@@H]12 — result for “total bilirubin change”: 0.509 mg/dL (premenopausal women with endometriosis pain, serum; 60 mg twice daily, end of treatment, completers, mean; reference: baseline).
